Experimental data of several laboratories.
Every numbered part comes from another study and shows a few of its results, in no order.

Block 1
Target: Interferon regulatory factor 7, full length, phosphomimetic (IRF7, Homo sapiens, UniProt Q92985, residues 1-503, S101K/S471D/S472D/S475D/S476D/S477D/S483D/S484D/S487D)
Method: protein-binding microarray
Form: double-stranded DNA, one strand shown
Sample: in vitro
Concentration: 250 nM
Setting: 60-bp whole probe
Together with: salmon DNA 0.4 mg/ml
Relative to: random background probes
Reading: higher = stronger binding
All sequences stand within: GCCTAGCAC … GTCTTGATTCGCTTGACGCTGCTG
Residues (chain): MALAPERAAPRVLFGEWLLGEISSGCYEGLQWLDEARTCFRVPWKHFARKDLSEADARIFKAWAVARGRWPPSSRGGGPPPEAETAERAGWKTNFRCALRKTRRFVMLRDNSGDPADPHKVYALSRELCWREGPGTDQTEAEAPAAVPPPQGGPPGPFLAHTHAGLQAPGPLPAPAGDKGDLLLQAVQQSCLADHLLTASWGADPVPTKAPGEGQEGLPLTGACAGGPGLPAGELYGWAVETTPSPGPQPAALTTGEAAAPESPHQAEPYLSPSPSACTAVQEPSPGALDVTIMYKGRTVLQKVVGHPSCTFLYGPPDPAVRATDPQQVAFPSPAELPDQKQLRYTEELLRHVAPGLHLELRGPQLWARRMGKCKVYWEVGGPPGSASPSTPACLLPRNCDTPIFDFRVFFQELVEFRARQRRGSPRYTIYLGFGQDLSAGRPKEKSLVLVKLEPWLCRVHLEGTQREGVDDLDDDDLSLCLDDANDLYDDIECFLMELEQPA
Sequence | log fluorescence
GTCGATCTCAGTCTCGAGACGTGCTAG | 0.877 z-score
GACGGTAGCGGTATCGGGACGTGCTAG | -0.208 z-score
GACCGTATCCTTTTCCTGACGTGCTAG | 1.33 z-score
GAGGGTCTCCTACTGCTGACGTGCTAG | -0.427 z-score
TTAGAAGTGGGGTATCGATTAGTGCTA | -0.114 z-score
GAAGGACTGGGTATCGGGACGTGCTAG | -0.302 z-score
TGTTACATTTATATCTTTGCGTGCTAG | 0.603 z-score
CTTGCTCTTGTTTTCACAGGGTGCTAG | 0.69 z-score
TCATAAACTAGAAACTGAACTGTGCTA | 0.969 z-score
GACGAACTGAGAATGGAGACGTGCTAG | 0.213 z-score
TTAGATATCAGTCTTGATTAGTGCTAG | -0.159 z-score
GACGGTATCGGGACTGGAGACGTGCTA | -0.246 z-score
GACGGTATCGACTATGGGGACGTGCTA | -0.00467 z-score
TCAAAGATTTTTATCAAACTGTGCTAG | -0.0471 z-score
GACGGTATCGGTATCTGGACGTGCTAG | 1.23 z-score
TTAGGTTTCCGTTCCCTTTAGTGCTAG | 6.23 z-score
TTAGGACTGGGTTTCTGTTAGTGCTAG | 2.32 z-score

Block 2
Target: Centromere-binding protein 1, full length, N-terminal tag (CBF1, Saccharomyces cerevisiae, UniProt P17106, residues 1-351)
UniProt P17106, sequence (whole entry, looked up): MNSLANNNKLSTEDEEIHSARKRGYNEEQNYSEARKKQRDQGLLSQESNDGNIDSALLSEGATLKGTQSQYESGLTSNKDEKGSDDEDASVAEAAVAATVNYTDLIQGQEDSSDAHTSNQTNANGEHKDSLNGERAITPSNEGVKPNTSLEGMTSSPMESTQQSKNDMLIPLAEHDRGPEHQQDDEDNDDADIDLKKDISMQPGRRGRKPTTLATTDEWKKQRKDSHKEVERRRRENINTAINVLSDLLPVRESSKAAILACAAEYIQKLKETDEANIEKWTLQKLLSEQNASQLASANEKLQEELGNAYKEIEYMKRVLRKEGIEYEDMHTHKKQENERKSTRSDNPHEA
Method: protein-binding microarray
Form: double-stranded DNA, one strand shown
Sample: in vitro
Concentration: 0.8 µM
Setting: whole 60-bp probe, no competitor
Reading: higher = stronger binding
Sequence | fluorescence intensity [a.u.]
CTATCATCAGTCCCTGATGTCTTGCTCTTTCCTTTCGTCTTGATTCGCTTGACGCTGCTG | 544
CTACTCAGGTGATGAAGCGTGATGACGATGACATTCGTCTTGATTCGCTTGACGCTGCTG | 859
TGTACGAAGCTATAGTGCGTGTCTATAGTAGTTAGGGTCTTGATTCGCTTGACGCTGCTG | 515
CTAGAAGTGATTGGTGTCACGATGATAAAAATTTTCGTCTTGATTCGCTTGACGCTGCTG | 960
GAATATTGTTATTCATTCGTGATAGCTGCCCCTTAGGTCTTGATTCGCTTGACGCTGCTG | 520
GAATCAAGTTGGTGTCACGTCACGTGCTTTTCATAGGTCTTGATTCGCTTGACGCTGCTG | 19700
CCTAACTACTATACTGATGTCTTATAGCTTCGTACAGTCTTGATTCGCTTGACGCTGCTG | 537
CTATGTGAGGTGCATTACATCATGAAAGAGTATTTCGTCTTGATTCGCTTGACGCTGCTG | 543
TGTACGAAGCTATACCACGTAATTATAGTAGTTAGGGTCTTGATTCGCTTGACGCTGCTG | 531
CTAGATTTTTCAGGTGATGAGGTGGAGCTGGAGTTCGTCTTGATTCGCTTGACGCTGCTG | 732
GAACTATGTAAAGGTGATCCAGTCTTGGTTAGCTAGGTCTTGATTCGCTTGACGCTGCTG | 498
CTAAGTTCTGTATATCACGATCAAGATATCATATTCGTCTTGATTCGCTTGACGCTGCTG | 586
CTATAGCAAATTTATCATGAGAGCGCTTCAGTGTTCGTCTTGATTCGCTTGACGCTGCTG | 526
CTACCTGACATAGCCCTGATGTTGAAGATTTTCTTCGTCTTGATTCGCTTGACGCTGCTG | 492
CTACTGCATCTTATTCCCGTGCCAAGGTCTCTGTTCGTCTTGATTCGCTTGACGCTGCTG | 675
CTATACATCAAAATCCACATGCTCTACAATCAATTCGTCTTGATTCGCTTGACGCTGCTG | 643
GAAGATTGCAAATCAAACGTGTGGCTCCTCGAGTAGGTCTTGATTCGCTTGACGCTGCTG | 516

Block 3
Target: RNA binding protein fox-1 homolog 2, RRM domain, GST-SBP tag (RBFOX2, Homo sapiens, UniProt O43251-10, residues 100-194)
Method: RNA Bind-n-Seq
Form: RNA
Sample: in vitro
Concentration: 365 nM
Setting: natural RNA segment, single round, ends assumed
Relative to: no-protein control
Reading: higher = stronger binding
Residues (chain): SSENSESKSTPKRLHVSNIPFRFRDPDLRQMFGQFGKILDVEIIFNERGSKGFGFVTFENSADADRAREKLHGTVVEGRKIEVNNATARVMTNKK
Sequence | RBNS enrichment (R)
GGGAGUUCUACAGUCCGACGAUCUAGUUUUUAAUUAAUCUUAAGAUCUGGUUACGGUAACUAAAAAAGCCUGUCUGCCAAAUCCAGUGGAAACAAGUGCAUAGAUGUGAAUUGGUUUUUAGGGGCCCCACUUCUGGAAUUCUCGGGUGCCAA | 0.517
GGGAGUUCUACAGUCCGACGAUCAGUUUAAGUUUUAAACUAAAAGUUACAGAAUUGAAUGUGGAUACCGGCUUCAUUCACCCCCACUUGGAUUCUAAACAUGACCAGUGAAAUAGUGAAAGCUGACCACAGUUUGGAAUUCUCGGGUGCCAA | 0.25
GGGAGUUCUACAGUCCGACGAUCCUACCAAUCUGAAUUCGAGGCCCAUAUGAGAGGAGCUUAGAAACGACCAAGAAGAGAGGCUUGUUGGAAUCAAUUCUGCACAAUAGCCCAUGCUGUAAGCUCAUAGAAGUUGGAAUUCUCGGGUGCCAA | 0.32
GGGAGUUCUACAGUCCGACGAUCAGUUGUAUUUUUAUCUAAUGCCAUUUUAGAAUUUUCUAAGGGAAUUUAAUGAAUUCACAUGAAAGGGGUAGUCUGAGUGACACAGUUCCCCACUCCGUACUGUAUUUUGCUGGAAUUCUCGGGUGCCAA | 0.636
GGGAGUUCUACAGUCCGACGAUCCACACCUACCCCUACCGUCCAGCCUGGCCUCUUCCCUGAAUCAGCUUCAAGAUGGCACCAGCUCUUUGGGCCUAGGAUACUGCCGGGCCCCCCAAGGGGGUCCCCAGCAAUGGAAUUCUCGGGUGCCAA | 0.371
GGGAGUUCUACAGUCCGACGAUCGCUGGGCUACGCGGUGAGGCCCUGUCUCACAGAGGCAGGGAGAGUGUUUUACUGGAAAAGCUGCAGUUGAUCUCAAAUUGAGCAGCGAGCUUUCAUGCUCAGUUGGAAUCUGGAAUUCUCGGGUGCCAA | 0.313
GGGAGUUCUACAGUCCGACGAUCUUACUGUCUCUUCUGGUUAUAAAGCAGACAUGUGGCCAUCUUUUCCGCAGGGUUAGAGUGGGCUCCUUUCUUUUUGGAAUCCUUUUCUUCUCCUUUGGUAGCAGCUCCCUUGGAAUUCUCGGGUGCCAA | 0.308
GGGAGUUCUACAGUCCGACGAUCCUGGUUCAUUUAGCUGUUUGGCAGAAUUCUUACACUAUCCUCAGCCUCAGUUAUGAAAUGACCAAGAAAAGUAUCUCAUAAAUAUUGUAUAUUACGUGAAAUGUGAAGUUUGGAAUUCUCGGGUGCCAA | 0.352

Block 4
Target: Sal-like protein 4, full length isoform B (SALL4, Homo sapiens, UniProt Q9UJQ4-2, residues 1-616)
Method: universal PBM
Form: double-stranded DNA, one strand shown
Sample: in vitro
Concentration: not given
Setting: 8-mer, flanks averaged, mean of replicates
Reading: higher = stronger binding
Sequence | E-score
GTCGATGA | -0.0639
CCGTCCGA | -0.273
TGTGGGAA | 0.0164
CCTGGTCA | -0.301
ACTCAGTC | -0.194
CAGGGGGG | -0.39
AGCGGACC | -0.293
AGGAATAG | 0.109
GGACTTCA | -0.118
CCTCACCA | -0.17
ACACCCCC | -0.0983
GGATAGCC | -0.22
ACCACCTA | -0.0488
ACAGGCGC | -0.249
ACCGGCTG | -0.406
ATTTACGA | 0.28
AATAAACT | 0.359
ACACGGTA | -0.0847
CGATGAGC | -0.228
CAATGGGG | -0.163
ATACCTGG | -0.127
CACCTAAC | -0.0255

Some of these lines once more (block 2):
Sequence | fluorescence intensity [a.u.]
CTATACATCAAAATCCACATGCTCTACAATCAATTCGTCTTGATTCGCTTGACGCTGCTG | 643
TGTACGAAGCTATAGTGCGTGTCTATAGTAGTTAGGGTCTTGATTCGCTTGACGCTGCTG | 515
GAACTATGTAAAGGTGATCCAGTCTTGGTTAGCTAGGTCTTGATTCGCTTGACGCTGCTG | 498
CTACCTGACATAGCCCTGATGTTGAAGATTTTCTTCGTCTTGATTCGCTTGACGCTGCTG | 492
CTACTCAGGTGATGAAGCGTGATGACGATGACATTCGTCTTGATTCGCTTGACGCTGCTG | 859
GAAGATTGCAAATCAAACGTGTGGCTCCTCGAGTAGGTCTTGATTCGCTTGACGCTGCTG | 516
